Assay results pooled from the literature.
Each line is one published result; not all experiments were run side by side.
EGFR: Epidermal growth factor receptor (EGFR, Homo sapiens, UniProt P00533)
EGFR G719C: Epidermal growth factor receptor (EGFR, Homo sapiens, UniProt P00533, G719C)
EGFR A750P/del747-749: Epidermal growth factor receptor (EGFR, Homo sapiens, UniProt P00533, A750P/del747-749)

The remaining binding of `CNS(=O)(=O)Nc1nccc(Cc2c(C)c3ccc(Oc4ncccc4F)cc3oc2=O)c1F` is reported as 96% (EGFR; cell-free assay, competition with immobilised ligand; 10 µM).
`Nc1ncc2c(n1)-c1c([nH]c3ccc(C4=CCOCC4)cc13)CCC2` has a remaining binding of 59% (EGFR G719C; binding, competition with immobilised ligand; 1 µM).
`Cc1ccc(-c2c(/C=C(\C#N)C(=O)NC(C)C)n(CCCO)c3ncnc(N)c23)cc1` gave a remaining binding of 100% (EGFR (Homo sapiens, UniProt P00533, del752-759); cell-free assay, competition with immobilised ligand; 1 µM).
`C=CC(=O)N1CCCC(n2c(=O)c3ncccc3n(Cc3ccc(Oc4ccccc4)cc3)c2=O)C1` (stereo not shown) gave a remaining binding of 88% (EGFR G719C; cell-free assay, competition with immobilised ligand; 1 µM).
The remaining binding of `CCN1CCN(Cc2ccc(C(=O)Nc3ccc(C)c(NCc4cnc5[nH]ccc5c4OC)c3)cc2C(F)(F)F)CC1` is reported as 2.6% (EGFR A750P/del747-749; binding, competition with immobilised ligand; 1 µM).
The remaining binding of `CNC(=O)C1CCN(c2cc(C)c(F)cc2NC(=O)c2ccc(-c3cc(O)ccc3C)c(C)c2)CC1` is reported as 95% (EGFR (Homo sapiens, UniProt P00533, del746-750); binding, competition with immobilised ligand; 1 µM).
With `COc1c(Cl)cccc1Nc1c(-c2ccncc2C#C[C@@]2(C)CCCN2C(=O)/C=C/CN(C)C)[nH]c2c1C(=O)NCC2` the remaining binding was 0% (EGFR; cell-free assay, competition with immobilised ligand; 3 µM).
`COc1ccc(NC(=O)Nc2ccc3c(c2)C(=O)N(C(C)CO)CC(C)C(CN(C)Cc2ccc4c(c2)OCO4)O3)cc1` (stereo not shown) has a remaining binding of 60% (EGFR (Homo sapiens, UniProt P00533, L858R); binding, competition with immobilised ligand; 10 µM).
`CC(C)=CC1OC(C)(C)C2C=C3C(=O)C(Cl)=CC(O)C3C3C(O)C4OC4C(=O)C132` (stereo not shown) gave a remaining binding of 78% (EGFR A750P/del747-749; cell-free assay, competition with immobilised ligand; 10 µM).
`CNC1C[S+]2CC[S+]3CC[S+](C1)[Ru-4]321([N]=C=S)[n]2c3ccc(OC)cc3c3c4c(c5cc(F)c[n+]1c5c32)C(=O)NC4=O` (stereo not shown) has a remaining binding of 100% (EGFR (Homo sapiens, UniProt P00533, L858R/T790M); KinomeScan; 0.1 µM; reference: untreated).
`C=CC(=O)N1CCc2ccc(-n3c(=O)ccc4cnc5ccc(-c6cnn(C)c6)cc5c43)cc21` has a remaining binding of 67% (EGFR (Homo sapiens, UniProt P00533, L861Q); KINOMEscan; 1 µM; reference: DMSO control).
`CN1CCN(Cc2ccc(NC(=O)c3cccc(C#Cc4cnc(N)c5ncccc45)c3)cc2C(F)(F)F)CC1` has a remaining binding of 17% (EGFR; cell-free assay, competition with immobilised ligand; 0.5 µM).
The remaining binding of `CCN1CCN(Cc2ccc(NC(=O)c3ccc(C)c(NC(=O)c4cncc(-c5cccs5)c4)c3)cc2C(F)(F)F)CC1` is reported as 0.1% (EGFR A750P/del747-749; binding, competition with immobilised ligand; 1 µM).
